Experimental data of several laboratories.
Lines come from different studies, so protocols differ. Several values in a cell are separate wells, animals, samples, runs or records. Numbers after ± are the reported error.
GUK1 part: GMP-bound: GUK1, part: GMP-bound (Homo sapiens, UniProt Q16774)
Sequence of UniProt Q16774 (whole entry, unmodified, looked up): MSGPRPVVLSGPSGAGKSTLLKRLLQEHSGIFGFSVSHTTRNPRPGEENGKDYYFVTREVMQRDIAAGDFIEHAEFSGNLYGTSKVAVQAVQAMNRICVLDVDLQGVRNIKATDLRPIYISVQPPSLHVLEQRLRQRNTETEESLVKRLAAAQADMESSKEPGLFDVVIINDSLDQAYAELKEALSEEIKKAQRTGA
USP33 ZnF-UBD domain: Ubiquitin carboxyl-terminal hydrolase 33, ZnF-UBD domain (USP33, Homo sapiens, UniProt Q8TEY7)
Sequence of UniProt Q8TEY7 (whole entry, looked up): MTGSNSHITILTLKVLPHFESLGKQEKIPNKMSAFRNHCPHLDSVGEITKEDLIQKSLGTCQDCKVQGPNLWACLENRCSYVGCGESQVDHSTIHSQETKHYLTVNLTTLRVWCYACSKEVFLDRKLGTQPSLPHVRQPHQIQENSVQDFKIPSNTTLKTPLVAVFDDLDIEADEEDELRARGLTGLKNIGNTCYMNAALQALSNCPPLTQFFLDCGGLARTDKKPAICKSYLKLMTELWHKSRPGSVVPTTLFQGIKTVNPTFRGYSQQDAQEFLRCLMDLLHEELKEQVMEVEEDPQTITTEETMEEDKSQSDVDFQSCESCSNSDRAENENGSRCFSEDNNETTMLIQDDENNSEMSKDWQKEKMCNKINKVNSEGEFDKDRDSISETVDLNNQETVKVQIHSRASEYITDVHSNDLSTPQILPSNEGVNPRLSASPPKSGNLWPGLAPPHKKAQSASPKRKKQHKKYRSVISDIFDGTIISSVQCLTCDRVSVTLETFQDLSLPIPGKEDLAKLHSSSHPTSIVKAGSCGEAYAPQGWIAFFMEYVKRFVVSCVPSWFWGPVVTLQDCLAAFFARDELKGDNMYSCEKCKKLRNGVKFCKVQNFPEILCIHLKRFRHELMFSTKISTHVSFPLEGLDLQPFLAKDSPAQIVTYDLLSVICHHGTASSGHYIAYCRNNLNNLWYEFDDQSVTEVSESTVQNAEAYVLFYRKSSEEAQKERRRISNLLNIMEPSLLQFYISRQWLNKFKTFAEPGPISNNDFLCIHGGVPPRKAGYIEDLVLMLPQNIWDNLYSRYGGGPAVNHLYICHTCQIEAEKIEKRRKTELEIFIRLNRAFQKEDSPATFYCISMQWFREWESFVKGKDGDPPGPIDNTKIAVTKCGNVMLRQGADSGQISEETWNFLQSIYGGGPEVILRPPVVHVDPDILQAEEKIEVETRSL
Sequence of UniProt P39146 (whole entry, unmodified, looked up): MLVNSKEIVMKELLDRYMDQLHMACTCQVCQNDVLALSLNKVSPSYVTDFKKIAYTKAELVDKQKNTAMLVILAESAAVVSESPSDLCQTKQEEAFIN
Sequence of UniProt P22748 (whole entry, looked up): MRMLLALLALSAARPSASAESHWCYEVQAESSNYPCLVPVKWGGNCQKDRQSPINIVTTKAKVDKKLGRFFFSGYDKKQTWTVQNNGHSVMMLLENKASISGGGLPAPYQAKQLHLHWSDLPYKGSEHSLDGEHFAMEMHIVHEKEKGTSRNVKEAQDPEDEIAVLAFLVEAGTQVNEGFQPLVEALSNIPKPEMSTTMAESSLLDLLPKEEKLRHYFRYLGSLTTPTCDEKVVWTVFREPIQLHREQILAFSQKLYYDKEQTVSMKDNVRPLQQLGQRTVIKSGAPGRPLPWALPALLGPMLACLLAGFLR
Sequence of UniProt P17342 (whole entry, looked up): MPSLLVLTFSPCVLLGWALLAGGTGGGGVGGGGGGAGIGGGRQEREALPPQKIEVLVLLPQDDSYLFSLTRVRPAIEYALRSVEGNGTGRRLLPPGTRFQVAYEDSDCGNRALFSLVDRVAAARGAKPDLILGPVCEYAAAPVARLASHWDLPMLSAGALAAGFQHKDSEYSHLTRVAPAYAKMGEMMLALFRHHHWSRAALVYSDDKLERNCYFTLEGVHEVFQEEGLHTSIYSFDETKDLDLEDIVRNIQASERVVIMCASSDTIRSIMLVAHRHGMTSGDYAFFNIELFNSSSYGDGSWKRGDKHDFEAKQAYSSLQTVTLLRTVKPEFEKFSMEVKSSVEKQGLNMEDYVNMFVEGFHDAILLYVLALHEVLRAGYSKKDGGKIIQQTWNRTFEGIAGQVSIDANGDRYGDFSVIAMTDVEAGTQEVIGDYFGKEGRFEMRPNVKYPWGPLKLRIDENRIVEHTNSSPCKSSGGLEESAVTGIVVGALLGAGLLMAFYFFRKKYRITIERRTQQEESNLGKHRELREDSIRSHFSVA
Sequence of UniProt Q5MQD0 (whole entry, looked up): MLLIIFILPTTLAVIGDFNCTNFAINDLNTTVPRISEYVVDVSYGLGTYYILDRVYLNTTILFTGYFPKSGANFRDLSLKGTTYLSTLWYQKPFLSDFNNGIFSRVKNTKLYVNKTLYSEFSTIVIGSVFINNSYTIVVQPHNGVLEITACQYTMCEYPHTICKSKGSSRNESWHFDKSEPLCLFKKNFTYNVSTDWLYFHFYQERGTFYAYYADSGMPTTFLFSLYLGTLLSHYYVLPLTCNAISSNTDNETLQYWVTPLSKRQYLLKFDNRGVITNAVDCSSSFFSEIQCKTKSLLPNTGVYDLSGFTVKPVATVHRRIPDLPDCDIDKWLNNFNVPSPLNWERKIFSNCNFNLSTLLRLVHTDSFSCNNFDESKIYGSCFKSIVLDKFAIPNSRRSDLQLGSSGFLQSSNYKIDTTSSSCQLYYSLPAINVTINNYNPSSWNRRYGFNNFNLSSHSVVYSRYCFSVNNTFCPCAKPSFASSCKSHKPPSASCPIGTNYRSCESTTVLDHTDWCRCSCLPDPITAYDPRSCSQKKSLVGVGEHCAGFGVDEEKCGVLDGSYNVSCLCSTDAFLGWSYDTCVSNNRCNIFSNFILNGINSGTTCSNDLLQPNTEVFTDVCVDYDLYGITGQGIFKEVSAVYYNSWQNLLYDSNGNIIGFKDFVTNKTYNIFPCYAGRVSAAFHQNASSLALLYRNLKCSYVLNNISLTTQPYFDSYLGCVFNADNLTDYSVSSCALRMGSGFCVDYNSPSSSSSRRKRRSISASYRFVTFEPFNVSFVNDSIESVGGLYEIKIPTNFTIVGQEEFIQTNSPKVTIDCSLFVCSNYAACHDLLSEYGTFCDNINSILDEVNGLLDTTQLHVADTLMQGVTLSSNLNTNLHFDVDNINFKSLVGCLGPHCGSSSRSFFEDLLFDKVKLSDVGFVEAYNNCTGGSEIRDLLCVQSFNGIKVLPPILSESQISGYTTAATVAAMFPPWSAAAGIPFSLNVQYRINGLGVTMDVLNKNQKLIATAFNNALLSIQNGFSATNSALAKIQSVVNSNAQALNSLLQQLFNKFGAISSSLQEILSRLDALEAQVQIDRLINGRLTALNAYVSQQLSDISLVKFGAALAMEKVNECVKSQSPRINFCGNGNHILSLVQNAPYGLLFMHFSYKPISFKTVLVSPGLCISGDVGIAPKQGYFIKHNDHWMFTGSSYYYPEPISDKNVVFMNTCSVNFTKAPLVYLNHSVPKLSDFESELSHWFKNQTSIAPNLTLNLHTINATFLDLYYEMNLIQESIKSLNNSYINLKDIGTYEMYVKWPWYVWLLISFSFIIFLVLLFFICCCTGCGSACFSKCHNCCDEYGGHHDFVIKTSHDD
Sequence of UniProt Q9NZQ7 (whole entry, looked up): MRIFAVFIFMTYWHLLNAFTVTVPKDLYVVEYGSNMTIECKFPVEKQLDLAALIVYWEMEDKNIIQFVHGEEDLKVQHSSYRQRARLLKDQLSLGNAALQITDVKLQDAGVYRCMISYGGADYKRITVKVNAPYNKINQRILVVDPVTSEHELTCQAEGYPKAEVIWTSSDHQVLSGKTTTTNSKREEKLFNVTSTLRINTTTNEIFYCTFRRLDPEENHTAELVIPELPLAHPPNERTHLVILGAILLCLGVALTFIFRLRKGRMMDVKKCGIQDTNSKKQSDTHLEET
Sequence of UniProt B9K712 (whole entry, looked up): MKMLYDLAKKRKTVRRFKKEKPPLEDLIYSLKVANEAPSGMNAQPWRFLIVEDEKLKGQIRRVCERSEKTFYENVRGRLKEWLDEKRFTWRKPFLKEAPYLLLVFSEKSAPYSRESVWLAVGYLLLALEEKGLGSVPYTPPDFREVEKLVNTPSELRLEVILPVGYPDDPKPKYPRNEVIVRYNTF
Sequence of UniProt Q86UL3 (whole entry, looked up): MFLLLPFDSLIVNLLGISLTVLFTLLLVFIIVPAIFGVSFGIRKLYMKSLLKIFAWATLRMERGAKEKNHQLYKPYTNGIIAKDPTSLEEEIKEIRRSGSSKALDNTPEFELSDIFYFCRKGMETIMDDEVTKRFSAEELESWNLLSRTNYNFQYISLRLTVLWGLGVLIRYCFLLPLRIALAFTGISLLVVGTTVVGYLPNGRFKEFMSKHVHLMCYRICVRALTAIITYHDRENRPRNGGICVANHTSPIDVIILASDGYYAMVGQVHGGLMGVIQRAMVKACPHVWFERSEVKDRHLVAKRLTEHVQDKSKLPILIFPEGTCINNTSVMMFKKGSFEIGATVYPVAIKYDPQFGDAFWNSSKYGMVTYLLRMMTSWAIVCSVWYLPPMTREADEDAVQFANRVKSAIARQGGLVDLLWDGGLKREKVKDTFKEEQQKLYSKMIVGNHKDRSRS
Sequence of UniProt O75030 (1-296, looked up): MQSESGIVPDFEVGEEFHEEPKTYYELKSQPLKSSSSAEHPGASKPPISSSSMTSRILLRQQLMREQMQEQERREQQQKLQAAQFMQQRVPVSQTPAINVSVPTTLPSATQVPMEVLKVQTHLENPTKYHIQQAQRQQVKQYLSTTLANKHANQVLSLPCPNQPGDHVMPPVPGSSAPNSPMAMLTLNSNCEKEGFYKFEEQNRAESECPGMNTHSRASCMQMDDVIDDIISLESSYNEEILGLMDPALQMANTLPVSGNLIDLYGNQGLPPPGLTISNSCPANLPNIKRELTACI

Compound | target | test | test system | setting | Kd
Nc1nc2c(ncn2[C@@H]2O[C@@H]3CO[P@](=O)(O)O[C@H]4[C@@H](O)[C@H](n5cnc6c(=O)[nH]c(N)nc65)O[C@@H]4CO[P@](=O)(O)O[C@H]3[C@H]2O)c(=O)[nH]1 | Competence protein ComFB (comFB, Bacillus subtilis, UniProt P39146, N40A) | – | – | – | 5 ± 1.66 µM
Nc1nc2c(ncn2[C@@H]2O[C@H](COP(=O)(O)OP(=O)(O)OP(=O)(O)O)[C@@H](O)[C@H]2O)c(=O)[nH]1 | BisD (Pseudomonas knackmussii) | binding, isothermal titration calorimetry | – | – | ~64 µM
C[C@H]1O[C@H](O[C@H]2[C@H](O)[C@@H](O)[C@@H](O[C@H]3[C@H](O)[C@@H](O)C(O)O[C@@H]3CO)O[C@@H]2CO)[C@H](O)[C@@H](O)[C@@H]1N[C@H]1C=C(CO)[C@@H](O)[C@H](O)[C@H]1O (stereo partly shown) | Uncharacterized protein (Staphylococcus aureus, UniProt Q2G1E9) | isothermal titration calorimetry | – | 25 °C, single-site fit | 1.89 ± 0.27 µM
CC(C)C[C@H](NC(=O)[C@H](CC(N)=O)NC(=O)[C@H](Cc1c[nH]c2ccccc12)NC(=O)[C@@H](NC(=O)[C@H](Cc1ccc(O)cc1)NC(=O)[C@H](Cc1ccc(O)cc1)NC(=O)[C@H](CO)NC(=O)[C@H](CCCNC(=N)N)NC(=O)[C@H](Cc1c[nH]cn1)NC(=O)[C@@H](N)Cc1c[nH]c2ccccc12)[C@@H](C)O)C(=O)O | Programmed cell death 1 ligand 1, extracellular domain (CD274, Homo sapiens, UniProt Q9NZQ7) | binding, SPR | – | – | 0.243 µM
O=C(O)c1cc2ccc(C#CC3(O)CCCCC3)cc2n1-c1cccc(Cl)c1 | Microphthalmia-associated transcription factor, residues 1-296 (Homo sapiens, UniProt O75030) | binding, isothermal titration calorimetry | – | – | 0.46 ± 0.17 µM
Nc1ncnc2c1ncn2[C@@H]1O[C@H](COP(=O)(O)OP(=O)(O)OP(=O)(O)O)[C@@H](O)[C@H]1O | BisD (Pseudomonas knackmussii) | binding, isothermal titration calorimetry | – | – | ~13 µM
Nc1ncnc2c1ncn2[C@@H]1O[C@H](CO[P@](=O)(O)O[P@](=O)(O)O[P@@](=O)(O)S)[C@@H](O)[C@H]1O | GUK1 part: GMP-bound | binding, ITC | – | together with: ADP | 11 ± 3 µM
OC[C@H]1O[C@H](O[C@H]2[C@H](O)[C@@H](O)[C@@H](O[C@H]3[C@H](O)[C@@H](O)C(O)O[C@@H]3CO)O[C@@H]2CO)[C@H](O)[C@@H](O)[C@@H]1O (stereo partly shown) | Uncharacterized protein (Staphylococcus aureus, UniProt Q2G1E9) | isothermal titration calorimetry | – | 25 °C, single-site fit | 3.19 ± 0.42 µM
OC[C@H]1OC(O)[C@H](O)[C@@H](O)[C@@H]1O (stereo partly shown) | Krueppel-like factor 4 (KLF4, Homo sapiens, UniProt O43474) | binding, microscale thermophoresis | – | – | > 2000 µM
O=C(O)CCc1nccs1 | USP33 ZnF-UBD domain | – | – | – | 808 µM
Nc1ncnc2c1ncn2[C@@H]1O[C@H](COP(=O)(O)OP(=O)(O)O)[C@@H](O)[C@H]1O | GUK1 part: GMP-bound | binding, ITC | – | together with: ATPγS and GMP 0.5 mM | 13.9 µM and 17.3 µM and 11.8 µM
O=C(O)CSc1nnc(NC(=O)COc2ccccc2)s1 | USP33 ZnF-UBD domain | – | – | – | > 1000 µM
OC[C@H]1O[C@H](O[C@H]2[C@H](O)[C@@H](O)[C@@H](O[C@H]3[C@H](O)[C@@H](O)[C@@H](O[C@H]4[C@H](O)[C@@H](O)[C@@H](O[C@H]5[C@H](O)[C@@H](O)C(O)O[C@@H]5CO)O[C@@H]4CO)O[C@@H]3CO)O[C@@H]2CO)[C@H](O)[C@@H](O)[C@@H]1O (stereo partly shown) | Uncharacterized protein (Staphylococcus aureus, UniProt Q2G1E9) | isothermal titration calorimetry | – | 25 °C, single-site fit | 1.21 ± 0.09 µM
C[C@]12CCC(=O)C=C1CC[C@@H]1[C@@H]2[C@@H](O)C[C@@]2(C)[C@H]1CC[C@]2(O)C(=O)CO | Corticosteroid-binding globulin (SERPINA6, Homo sapiens, UniProt P08185) | binding, ultrafiltration, LC-MS/MS | diabetic patients, plasma | 37 °C, 10% CO2, typical BMI and HbA1c | 0.0151 µM
O=C(O)CCC(=O)Nc1cccc2ccccc12 | USP33 ZnF-UBD domain | – | – | – | > 1000 µM
OC[C@H]1O[C@H](O[C@H]2[C@H](O)[C@@H](O)[C@@H](O[C@H]3[C@H](O)[C@@H](O)[C@@H](O[C@H]4[C@H](O)[C@@H](O)[C@@H](O[C@H]5[C@H](O)[C@@H](O)[C@@H](O[C@H]6[C@H](O)[C@@H](O)C(O)O[C@@H]6CO)O[C@@H]5CO)O[C@@H]4CO)O[C@@H]3CO)O[C@@H]2CO)[C@H](O)[C@@H](O)[C@@H]1O (stereo partly shown) | Uncharacterized protein (Staphylococcus aureus, UniProt Q2G1E9) | isothermal titration calorimetry | – | 25 °C, single-site fit | 1.4 ± 0.06 µM
N[C@@H](CCC(=O)O)C(=O)O | Uncharacterized protein (Pelagibacter ubique, UniProt Q4FM26) | isothermal titration calorimetry | Candidatus Pelagibacter ubique | direct titration | < 0.005 µM
Nc1nc2c(ncn2[C@@H]2O[C@H](COP(=O)(O)O)[C@@H](O)[C@H]2O)c(=O)[nH]1 | GUK1 (Homo sapiens, UniProt Q16774, Y53A) | binding, ITC | – | 25 °C | > 500 µM
NCCCC(=O)O | Sodium- and chloride-dependent taurine transporter (SLC6A6, Homo sapiens, UniProt P31641, E406A) | microscale thermophoresis | – | E406A mutant | 139 ± 43.1 µM

Compound | target | test | test system | setting | Kd
CCCN1CCN(c2ccc(-c3cncc(Cl)c3N3CCC4(CCNC4=O)CC3)cc2)CC1 | Glycerol-3-phosphate acyltransferase 4 (GPAT4, Homo sapiens, UniProt Q86UL3) | SILAC displacement | LS174T-L5 cell lysate | – | 7.03 µM
Nc1ncnc2c1ncn2[C@@H]1O[C@H](COP(=O)(O)OP(=O)(O)OP(=O)(O)O)[C@@H](O)[C@H]1O | Creatine kinase U-type, mitochondrial (CKMT1A, Homo sapiens, UniProt P12532) | microscale thermophoresis | – | pH 8.5, WT mutant, no substrate | 12 ± 2 µM
NC[C@@H]1O[C@H](O[C@H]2[C@@H](O)[C@H](O[C@@H]3[C@@H](O)[C@H](N)C[C@H](N)[C@H]3O[C@H]3O[C@H](CN)[C@@H](O)[C@H](O)[C@H]3N)O[C@@H]2CO)[C@H](N)[C@@H](O)[C@@H]1O | (CCUG)10 RNA | SPR | – | – | 1.45 µM
O=C(O)CCc1nc2ncccn2n1 | USP33 ZnF-UBD domain | – | – | – | > 1000 µM
Nc1ncnc2c1ncn2[C@@H]1O[C@@H]2COP(=O)(O)O[C@H]3[C@@H](O)[C@H](n4cnc5c(N)ncnc54)O[C@@H]3COP(=O)(O)O[C@H]2[C@H]1O | Competence protein ComFB (comFB, Bacillus subtilis, UniProt P39146) | – | – | – | 83.3 ± 73.1 µM
CC(=O)NC1C(O)CC(OC(CO)C(O)C2OC(OC3C(O)C(CO)OC(OC4C(CO)OC(Oc5ccc(N)cc5)C(O)C4O)C3O)(C(=O)O)CC(O)C2NC(C)=O)(C(=O)O)OC1C(O)C(O)COC(C)=O (stereo not shown) | Spike glycoprotein, D1 domain (S, Human coronavirus HKU1, UniProt Q5MQD0) | surface plasmon resonance | PBS | – | 5.1 ± 0.3 µM
O=C(O)COc1cnc2ccccc2n1 | USP33 ZnF-UBD domain | – | – | – | > 1000 µM
CON(C)C(=O)[C@H](CC(C)C)Nc1ncnc(Nc2ccc(NC(C)=O)cc2)n1 | Atrial natriuretic peptide receptor 3 (Homo sapiens, UniProt P17342) | binding, SPR | – | – | 144 ± 7.7 µM
N[C@@H](Cc1ccccc1)C(=O)O | Uncharacterized protein (Pelagibacter ubique, UniProt Q4FM26) | isothermal titration calorimetry | Candidatus Pelagibacter ubique | – | 5.53 µM and 5.54 µM and 4.29 µM and 2.48 µM and 4.01 µM and 3.69 µM
O=C(O)CCC(=O)c1ccc2c(c1)CCC(=O)N2 | USP33 ZnF-UBD domain | – | – | – | > 1000 µM
N[C@@H](Cc1ccc(O)cc1)C(=O)O | Iodotyrosine deiodinase, split at 68–92 (IYD, Thermotoga neapolitana, UniProt B9K712) | fluorescence quenching | – | 25 °C, oxidized enzyme | > 2000 µM
N[C@@H](CO)C(=O)O | Uncharacterized protein (Pelagibacter ubique, UniProt Q4FM26) | isothermal titration calorimetry | Candidatus Pelagibacter ubique | direct titration | 0.0064 µM
O=c1nc2[nH][nH]cc-2c(=O)[nH]1 | Casein kinase I isoform delta (CSNK1D, Homo sapiens, UniProt P48730) | surface plasmon resonance | – | up to 50 µM | no binding
CO[C@H]1O[C@H](COS(=O)(=O)O)[C@@H](O[C@@H]2O[C@@H](C(=O)O)[C@@H](O[C@H]3O[C@H](COS(=O)(=O)O)[C@@H](O[C@@H]4O[C@H](C(=O)O)[C@@H](O[C@H]5O[C@H](COS(=O)(=O)O)[C@@H](O)[C@H](O)[C@H]5NS(=O)(=O)O)[C@H](O)[C@H]4O)[C@H](OS(=O)(=O)O)[C@H]3NS(=O)(=O)O)[C@H](O)[C@H]2OS(=O)(=O)O)[C@H](O)[C@H]1NS(=O)(=O)O | Beta-2-glycoprotein 1, domain V (APOH, Homo sapiens, UniProt P02749, V266L) | isothermal titration calorimetry | 25 mM cacodylate buffer | pH 7.2, 298 K, together with: 150 mM NaCl | 37.7 µM
O=C(O)CCC(=O)Nc1ccccc1 | USP33 ZnF-UBD domain | – | – | – | > 1000 µM
NCC(=O)O | Uncharacterized protein (Pelagibacter ubique, UniProt Q4FM26) | isothermal titration calorimetry | Candidatus Pelagibacter ubique | – | 0.0299 µM and 0.0222 µM
O=C(O)Cn1cc2ccccc2n1 | USP33 ZnF-UBD domain | – | – | – | 268 µM
NS(=O)(=O)c1ccccc1 | Carbonic anhydrase 4 (CA4, Homo sapiens, UniProt P22748) | binding | – | – | 5.56 µM and 5.6 µM

Repeated from above:
Compound | target | test | test system | setting | Kd
CCCN1CCN(c2ccc(-c3cncc(Cl)c3N3CCC4(CCNC4=O)CC3)cc2)CC1 | Glycerol-3-phosphate acyltransferase 4 (GPAT4, Homo sapiens, UniProt Q86UL3) | SILAC displacement | LS174T-L5 cell lysate | – | 7.03 µM
Nc1ncnc2c1ncn2[C@@H]1O[C@H](COP(=O)(O)OP(=O)(O)OP(=O)(O)O)[C@@H](O)[C@H]1O | Creatine kinase U-type, mitochondrial (CKMT1A, Homo sapiens, UniProt P12532) | microscale thermophoresis | – | pH 8.5, WT mutant, no substrate | 12 ± 2 µM
NC[C@@H]1O[C@H](O[C@H]2[C@@H](O)[C@H](O[C@@H]3[C@@H](O)[C@H](N)C[C@H](N)[C@H]3O[C@H]3O[C@H](CN)[C@@H](O)[C@H](O)[C@H]3N)O[C@@H]2CO)[C@H](N)[C@@H](O)[C@@H]1O | (CCUG)10 RNA | SPR | – | – | 1.45 µM
